Results gathered from unrelated publications.
Values joined by “and” are separate records of one study, mostly repeats; a detail may differ.
Sequence of UniProt O70423 (whole entry, looked up): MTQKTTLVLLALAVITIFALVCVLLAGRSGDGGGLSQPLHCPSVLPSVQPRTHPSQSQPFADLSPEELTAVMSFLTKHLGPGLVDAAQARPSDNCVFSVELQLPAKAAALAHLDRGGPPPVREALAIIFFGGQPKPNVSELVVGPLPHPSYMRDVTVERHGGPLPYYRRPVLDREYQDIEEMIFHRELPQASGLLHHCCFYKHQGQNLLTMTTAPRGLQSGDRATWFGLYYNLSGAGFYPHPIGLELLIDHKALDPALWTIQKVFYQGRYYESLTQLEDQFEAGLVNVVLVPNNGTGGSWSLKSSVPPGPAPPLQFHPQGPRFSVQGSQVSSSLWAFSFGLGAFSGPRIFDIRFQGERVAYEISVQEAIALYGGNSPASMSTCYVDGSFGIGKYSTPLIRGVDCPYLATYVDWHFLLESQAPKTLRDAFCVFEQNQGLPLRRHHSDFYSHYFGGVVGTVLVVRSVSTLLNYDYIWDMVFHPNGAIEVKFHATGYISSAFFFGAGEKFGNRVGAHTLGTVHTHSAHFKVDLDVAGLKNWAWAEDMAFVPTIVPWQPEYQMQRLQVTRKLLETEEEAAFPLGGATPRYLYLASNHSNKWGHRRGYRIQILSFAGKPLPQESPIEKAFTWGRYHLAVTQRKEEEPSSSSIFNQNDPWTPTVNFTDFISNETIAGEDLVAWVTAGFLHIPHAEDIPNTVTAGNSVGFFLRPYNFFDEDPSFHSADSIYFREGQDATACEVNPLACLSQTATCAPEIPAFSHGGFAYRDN
Sequence of UniProt P08684 (whole entry, looked up): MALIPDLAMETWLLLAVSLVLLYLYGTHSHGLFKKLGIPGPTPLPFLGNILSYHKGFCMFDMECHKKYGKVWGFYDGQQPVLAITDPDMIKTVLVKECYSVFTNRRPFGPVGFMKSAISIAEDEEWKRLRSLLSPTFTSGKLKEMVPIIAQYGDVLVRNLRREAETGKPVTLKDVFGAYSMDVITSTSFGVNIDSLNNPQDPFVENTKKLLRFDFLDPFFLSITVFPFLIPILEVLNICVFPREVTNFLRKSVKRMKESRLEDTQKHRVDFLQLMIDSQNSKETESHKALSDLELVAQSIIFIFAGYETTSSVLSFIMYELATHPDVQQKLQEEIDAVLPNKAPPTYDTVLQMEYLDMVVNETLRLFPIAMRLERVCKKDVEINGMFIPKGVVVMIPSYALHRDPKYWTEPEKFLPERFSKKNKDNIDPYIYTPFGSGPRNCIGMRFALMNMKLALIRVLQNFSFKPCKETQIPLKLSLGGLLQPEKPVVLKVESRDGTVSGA
Sequence of UniProt P50613 (whole entry, looked up): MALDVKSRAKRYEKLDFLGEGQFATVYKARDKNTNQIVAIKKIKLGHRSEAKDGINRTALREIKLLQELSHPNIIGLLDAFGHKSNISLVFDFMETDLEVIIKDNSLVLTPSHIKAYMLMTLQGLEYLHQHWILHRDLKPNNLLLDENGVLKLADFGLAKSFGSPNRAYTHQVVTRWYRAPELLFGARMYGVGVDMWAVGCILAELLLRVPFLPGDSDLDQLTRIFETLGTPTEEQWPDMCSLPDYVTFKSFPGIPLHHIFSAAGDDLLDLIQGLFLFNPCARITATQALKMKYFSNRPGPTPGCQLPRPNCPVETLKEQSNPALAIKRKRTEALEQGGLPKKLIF

Structure (SMILES) | tested on | test | test system | setting | scale | endpoint | result
Cc1cc(Nc2ncnc3ccc(NC4=NC(C)(C)CO4)cc23)ccc1Oc1ccn2ncnc2c1 | Cytochrome P450 3A4 (CYP3A4, Homo sapiens, UniProt P08684) |  | human, plasma | oral, 300 mg, day 1, single dose alone |  | AUC(0-inf), mean | 3510 ng·h/mL
Cc1c(C(=O)O)ccc2c3n(nc12)[C@@H]1[C@H](C3)N(CC2CC2)[C@@]2(C(=O)Nc3cc(Cl)ccc32)[C@H]1c1cccc(Cl)c1F |  |  | female BALB/c nude mice, plasma | oral, 1 mg/kg twice daily, 24 h, SJSA-1 tumour-bearing |  | plasma concentration | 707 nM and 729 nM and 445 nM and 715 nM and 1060 nM
C[C@@H]1CCO[C@H]2Cn3cc(C(=O)NCc4ccc(F)cc4F)c(=O)c(O)c3C(=O)N12 |  | population PK, post-hoc | children aged 0.25 to 5 years, 6 to <10 kg, plasma | oral, 15 mg dispersible tablet, 24 h, steady state, geometric mean |  | plasma concentration | 765 ng/mL
Cn1cc([C@H]2C[C@H]3CSC(N)=N[C@@]3(c3ccc(F)cc3F)CO2)cn1 |  |  | mouse | subcutaneous, 10 mg/kg, 18 h |  | plasma concentration | not detected
COc1cccc(-c2n[nH]c(SCc3ccccn3)n2)c1OC |  |  | Sprague-Dawley rats, both sexes | oral dietary, 100 mg/kg/day, day 7, 0 h |  | plasma concentration | 1530 ng/mL
CC[C@@H]1[C@H](F)C(=O)N[C@@H]1COc1nccc2cc(C(N)=O)c(OC)cc12 | Cyclin-dependent kinase 7 (CDK7, Homo sapiens, UniProt P50613) | ATP-site probe binding, ActivX profiling | THP-1 cell lysate | 0.04 mM, Lys2 site |  | inhibition | -3.7%
NCc1cc2c(cc1F)C(=O)N(C1CCC(=O)NC1=O)C2 (stereo not drawn) | Amine oxidase [copper-containing] 3 (Mus musculus, UniProt O70423) | substrate, LC-MS/MS | recombinant mouse enzyme | 10 µM, 4 h, pH 7.4, together with: inhibitor 0.25 µM |  | concentration | 9000 nM
CCOCc1nc(O)c(-c2nnc(Cc3ccc(Cl)cn3)o2)c(O)c1-c1c(OC)cccc1OC |  |  | rat, anaesthetised, cannulated, plasma | intravenous infusion, 100 µg/kg/min, 15 min |  | plasma concentration | 15300 nM
C[C@H]1O[C@@H](O[C@H]2CC[C@@]3(C)[C@@H](CC[C@]4(C)[C@@H]3C=C[C@]35OC[C@@]6(CCC(C)(C)C[C@H]63)[C@@H](O)C[C@]54C)[C@]2(C)CO)[C@H](O)[C@@H](O[C@@H]2O[C@H](CO)[C@@H](O)[C@H](O)[C@H]2O)[C@H]1O |  | UHPLC-MS/MS | mouse, plasma | oral, 50 mg/kg, 6 h, pooled samples |  | plasma concentration | 1.01 ng/mL and 0.88 ng/mL
Cc1c(-c2ccc(N3CCc4cccc(C(=O)Nc5nc6ccccc6s5)c4C3)nc2C(=O)O)cnn1CC12CC3(C)CC(C)(C1)CC(OCCNCC[C@H](O)CO)(C3)C2 |  |  | anaesthetized male beagle dog | iv infusion, 0.01 mg/kg/min, 90 min |  | plasma concentration | < 2 ng/mL
Cn1cc(-c2ccc(-c3cncc(Cl)c3N3CCC4(CCNC4=O)CC3)cc2)cn1 | COLO 205 | gene expression, microarray, refers to: PDE3A mRNA |  | concentration not given, 2 h | reference: untreated cells | log2 fold change | 1.04
CCN1CCN(Cc2ccc(NC(=O)c3ccc(C)c(NC(=O)c4cncc(-c5cccs5)c4)c3)cc2C(F)(F)F)CC1 |  | LC-MS/MS | C57BL/6 mouse, plasma | intraperitoneal, 15 mg/kg single dose, 8 h |  | plasma concentration | 26 ng/mL and 48 ng/mL and 60 ng/mL

For quick reference, copied from above:
Structure (SMILES) | tested on | test | test system | setting | scale | endpoint | result
C[C@@H]1CCO[C@H]2Cn3cc(C(=O)NCc4ccc(F)cc4F)c(=O)c(O)c3C(=O)N12 |  | population PK, post-hoc | children aged 0.25 to 5 years, 6 to <10 kg, plasma | oral, 15 mg dispersible tablet, 24 h, steady state, geometric mean |  | plasma concentration | 765 ng/mL
